Assay results pooled from the literature.
Protocols differ between the studies behind these lines. ± marks the error that the study gave.

Molecule	assay	system	setting	scale	measurement	value
CC(C)=CCC[C@](C)(O[C@@H]1O[C@H](CO[C@@H]2O[C@H](CO)[C@@H](O)[C@H](O)[C@H]2O)[C@@H](O)[C@H](O)[C@H]1O)[C@H]1CC[C@]2(C)[C@@H]1[C@H](O)C[C@@H]1[C@@]3(C)CC[C@H](O[C@@H]4O[C@H](CO)[C@@H](O)[C@H](O)[C@H]4O[C@@H]4O[C@H](CO)[C@@H](O)[C@H](O)[C@H]4O)C(C)(C)[C@@H]3CC[C@]12C		Sprague Dawley rat, male, plasma	oral, 86 mg/kg, in frozen ginseng extract		CL/F	2.67 ± 0.333 mL/min/kg
C[C@@H]1CCC[C@H](n2cnc(-c3cc(Cl)ccc3-n3cc(Cl)nn3)cc2=O)c2cc(ccn2)-c2c(cnn2C(F)F)NC1=O		human, plasma	oral, 4 mg, single dose, fasted, healthy volunteers		AUC(0-inf)	210 ng·h/mL
CNCCCC1(c2ccc(F)cc2)OCc2cc(C#N)ccc21 (stereo not drawn)		mouse, perfused E18 placenta ex vivo	500 ng/mL maternal side, 120 min, pH 7.3	relative to: antipyrine	transplacental transfer index	0.2 ± 0.96
CN(C)Cc1cc(OCCC[18F])ccc1Sc1ccccc1N		male Sprague-Dawley rats, saline control, cerebellum	intravenous, dose not given, 60 min		tissue uptake	0.14 ± 0.04 %ID/g
Cc1ccc(C)c(COc2cc(NC(=O)c3ccc4c(c3)OCO4)ccc2N(C)S(C)(=O)=O)c1		male Sprague-Dawley rats, plasma	intraperitoneal, 20 mg/kg		Vz/F	3.33 L/kg
[2H]C([2H])([2H])Oc1cc2c(cc1OC([2H])([2H])[2H])C1CC(=O)C(CC(C)C)CN1CC2 (stereo not drawn)	item: deuterated total (α+β)-HTBZ	healthy human volunteers, plasma	oral, 12 mg single dose, standard meal		dose-normalized AUC(0-t)	21.7 ng·h/mL
COc1cc(C(=O)N2CCC3(CC2)CC(=O)c2c(cnn2C(C)C)C3)cc(-c2ccc(C(=O)O)cc2)n1	item: GGT	human	15 mg twice daily, 7 days		liver enzyme elevation	2.8 × ULN
O=C(O)Cc1cc(F)ccc1Nc1c(Cl)cc(F)cc1Cl		human liver microsomes	30 min, added: NADPH		remaining compound	107 ± 2.2%
O=C(Cc1cccc(OC(F)(F)F)c1)Nc1ccc(CCCCc2nnc(NC(=O)Cc3ccccn3)s2)nn1		human patients, plasma	oral, 150 mg three times daily fasted, cycle 1 day 15 steady state		Cmin	355 ng/mL
CCOc1ccc(Cc2cc([C@]34OC[C@](CO)(O3)[C@@H](O)[C@H](O)[C@H]4O)ccc2Cl)cc1		human, type 2 diabetes, normal renal function, urine and plasma	oral, 15 mg single, 0 to 96 h, geometric mean		renal clearance	2.09 mL/min
Cc1ccnc2c1NC(=O)c1cccnc1N2C1CC1		olive baboon (Papio anubis), non-pregnant, serum	oral, 5 mg/kg, solution, single dose		AUC(0-8 h)	769 ± 235 ng·h/mL
CNc1cc(-c2csc(N(C)C(=O)c3ccc([18F])cc3)n2)ncn1		formulation for injection	room temperature		radiochemical stability duration	≥ 4 h
CCCC[C@@H]1NC(=O)[C@@H](NC(=O)[C@H](CCC(=O)O)NC(=O)CNC(=O)CN2CCN(CC(=O)O)CCN(CC(=O)O)CCN(CC(=O)O)CC2)CCCCNC(=O)C[C@@H](C(N)=O)NC(=O)[C@H](C(C)C)NC(=O)[C@@H]2CCCN2C(=O)[C@H](CCCNC(=N)N)NC(=O)CNC(=O)[C@H](Cc2c[nH]c3ccccc23)NC(=O)[C@H](CCCNC(=N)N)NC(=O)[C@@H](Cc2ccccc2)NC(=O)[C@H](Cc2c[nH]cn2)NC(=O)[C@H](CCC(=O)O)NC1=O [indium-111 labelled]		normal C57 mice, lung	intravenous, 0.037 MBq, 4 h		tissue uptake	0.05 ± 0.05 %ID/g
CC[C@H](C)[C@H](NC(=O)[C@H](CCCCN)NC(=O)[C@@H]1CCCN1C(C)=O)C(=O)N[C@@H](CCC(=O)O)C(=O)N[C@H](C(=O)N[C@@H](CCCCN)C(=O)N[C@H](C(=O)N[C@@H](CCC(=O)O)C(=O)N1CCC[C@H]1C(N)=O)[C@@H](C)CC)[C@@H](C)CC	rotational rheometry	0.5% w/v aqueous solution	shear rate range 1-1000 s^-1		viscosity	1040 ± 31.7 Pa·s
O=C(c1nc2n(n1)[C@H](c1ccccc1)C[C@@H]2F)C1CC1		human, plasma	oral, 5 mg, single dose, fasted, healthy volunteers		AUC(0-inf)	1060 ng·h/mL
CNC(=O)c1cccc(-c2ccc(O[C@H]3O[C@H](CO)[C@@H](O)[C@H](O)[C@@H]3O)c(C)c2)c1		mouse, urine	oral, urine level above biofilm IC50		effective oral dose	50 mg/kg
Cc1cc(C)c(C#N)c(SCC(=O)c2ccc(F)cc2)n1	metabolic stability	human, liver microsomes	0.5 µM, pH 7.4		microsomal CLint	479 µL/min/mg

Molecule	assay	system	setting	scale	measurement	value
Cc1cc(Nc2ncc(Cl)c(Nc3ccccc3S(=O)(=O)C(C)C)n2)c(OC(C)C)cc1C1CCNCC1	item: unbound drug	human, enhancing tumour over plasma	oral, 450 mg/day, 23 to 25 h after dose 10		Kp,uu	3.54
C[C@]12CC[C@@H]3c4ccc(O)cc4CC[C@H]3[C@@H]1C[C@@H](O)[C@@H]2O	GC-MS	breast cancer women on NSAI, serum	vaginal, 0.03 mg daily, 2 h, day 28		mean serum concentration	0.00196 ng/mL
O=C1N=C(N2CCOCC2)CN1c1ccc(Cl)cc1		beagle dog, male	oral, 30 mg/kg, tablets, fed		terminal half-life	1.92 h
NC(=O)OCC(COC(N)=O)c1ccccc1		Sprague-Dawley rat, male, blood	oral, 300 mg/kg, 6 h		AST	88.8 ± 7.9 U/L
O=C(O)COC[C@H]1CC[C@H](COC(=O)N(c2ccccc2)c2ccc(Cl)cc2)CC1		human, plasma	oral, 20 µg, 12 h, multiple doses, twice daily, steady state		concentration	0.928 ng/mL
C[C@@H](O)[C@H]1C(=O)N2C(C(=O)O)=C(S[C@@H]3CN[C@H](C(=O)N(C)C)C3)[C@H](C)[C@H]12		pig, Danish Landrace, plasma	intravenous, 1000 mg over 10 min, 450 min dosing interval, added: 2.0 µg/mL MIC	relative to: dosing interval	time above MIC	40%
CO[C@H]1C[C@@H]2CC[C@@H](C)[C@@](O)(O2)C(=O)C(=O)N2CCCC[C@H]2C(=O)O[C@H]([C@H](C)C[C@@H]2CC[C@@H](O)[C@H](OC)C2)CC(=O)[C@H](C)/C=C(\C)[C@@H](O)[C@@H](OC)C(=O)[C@H](C)C[C@H](C)/C=C/C=C/C=C/1C		healthy dogs, whole blood	oral, 0.1 mg/kg once daily, 5 days		terminal half-life	99.5 ± 89.5 h
acyl ghrelin (human)		mouse, Ghsr knockout, striatum	intravenous, 10 min		brain/serum ratio	4.3 µL/g
CCCC[C@H](NC(C)=O)C(=O)N[C@H]1CCC(=O)NC[C@@H](C(=O)N[C@@H](Cc2c[nH]c3ccccc23)C(N)=O)NC(=O)[C@H](CCCNC(=N)N)NC(=O)[C@@H](Cc2ccccc2)NC(=O)[C@H](Cc2c[nH]cn2)NC1=O		healthy volunteers, both sexes, plasma	subcutaneous, 3.0 mg single dose		CL/F, geometric mean	318 mL/min
O=c1cc(-c2ccc(O)c(-c3c(O)cc(O)c4c(=O)cc(-c5ccc(O)cc5)oc34)c2)oc2cc(O)cc(O)c12	UV-vis pH titration	ethanol-water, 0.1 M NaCl	25 µM, 25 °C, fifth pKa, phenol deprotonation		pKa	11
Cn1c(-c2ccc(C(N)=O)cc2F)nnc1C(C)(C)Oc1c(F)cc(Cl)cc1F		young Japanese subjects, plasma	oral, 10 mg single dose, day 1		AUC(0-inf) median	1310 ng·h/mL
CCNc1[nH]c(=O)n(O)c(=O)c1C(=O)NCc1cccc(Cl)c1F	metabolic stability	human, liver microsomes			microsomal CLint	850 µL/min/mg
CC(C)C[C@H](NC(=O)[C@H](CCc1ccccc1)NC(=O)CN1CCOCC1)C(=O)N[C@@H](Cc1ccccc1)C(=O)N[C@@H](CC(C)C)C(=O)[C@@]1(C)CO1		human patients, plasma	intravenous infusion 10 min, 20 mg/m^2, day 1 of cycle 1, KRd regimen		steady-state volume of distribution	10.9 ± 4.39 L
CC[C@@H]1CN(C(=O)NCC(F)(F)F)C[C@@H]1c1cnc2cnc3[nH]ccc3n12		human, severe renal impairment, urine and plasma	oral, 15 mg single dose, extended release, fasted, geometric mean		renal clearance	15.7 mL/min
CNCc1ccc(-c2cc(-c3nc(-c4ccc(S(=O)(=O)C(C)C)cc4)cnc3N)on2)cc1		mouse BALB/c female, plasma	intravenous, 6.0 mg/kg, from AUC(0-360)		CL	47.6 mL/min/kg
CN[C@H]1C(=O)N[C@@H]2Cc3ccc(cc3)Oc3cc4cc(c3O[C@@H]3O[C@H](C(=O)O)[C@@H](O)[C@H](O)[C@H]3NC(=O)CCCCCCCCC(C)C)Oc3ccc(cc3Cl)[C@@H](O)[C@@H]3NC(=O)[C@H](NC(=O)[C@@H]4NC(=O)[C@@H](NC2=O)c2cc(cc(O)c2Cl)Oc2cc1ccc2O)c1ccc(O)c(c1)-c1c(O[C@H]2O[C@H](CO)[C@@H](O)[C@H](O)[C@@H]2O)cc(O)cc1[C@@H](C(=O)NCCCN(C)C)NC3=O	population PK model	human patients			intercompartmental clearance	0.038 L/h

Some of these lines once more:
Molecule	assay	system	setting	scale	measurement	value
CC[C@H](C)[C@H](NC(=O)[C@H](CCCCN)NC(=O)[C@@H]1CCCN1C(C)=O)C(=O)N[C@@H](CCC(=O)O)C(=O)N[C@H](C(=O)N[C@@H](CCCCN)C(=O)N[C@H](C(=O)N[C@@H](CCC(=O)O)C(=O)N1CCC[C@H]1C(N)=O)[C@@H](C)CC)[C@@H](C)CC	rotational rheometry	0.5% w/v aqueous solution	shear rate range 1-1000 s^-1		viscosity	1040 ± 31.7 Pa·s
O=C(c1nc2n(n1)[C@H](c1ccccc1)C[C@@H]2F)C1CC1		human, plasma	oral, 5 mg, single dose, fasted, healthy volunteers		AUC(0-inf)	1060 ng·h/mL
CNC(=O)c1cccc(-c2ccc(O[C@H]3O[C@H](CO)[C@@H](O)[C@H](O)[C@@H]3O)c(C)c2)c1		mouse, urine	oral, urine level above biofilm IC50		effective oral dose	50 mg/kg
Cc1cc(C)c(C#N)c(SCC(=O)c2ccc(F)cc2)n1	metabolic stability	human, liver microsomes	0.5 µM, pH 7.4		microsomal CLint	479 µL/min/mg
Cc1cc(Nc2ncc(Cl)c(Nc3ccccc3S(=O)(=O)C(C)C)n2)c(OC(C)C)cc1C1CCNCC1	item: unbound drug	human, enhancing tumour over plasma	oral, 450 mg/day, 23 to 25 h after dose 10		Kp,uu	3.54
